Measured values gathered from unrelated publications.
Protocols differ between the studies behind these lines. Numbers after ± are the reported error.
U2AF2: U2AF2 148-342 (Homo sapiens, UniProt P26368)
Chain of UniProt P26368 (whole entry, looked up): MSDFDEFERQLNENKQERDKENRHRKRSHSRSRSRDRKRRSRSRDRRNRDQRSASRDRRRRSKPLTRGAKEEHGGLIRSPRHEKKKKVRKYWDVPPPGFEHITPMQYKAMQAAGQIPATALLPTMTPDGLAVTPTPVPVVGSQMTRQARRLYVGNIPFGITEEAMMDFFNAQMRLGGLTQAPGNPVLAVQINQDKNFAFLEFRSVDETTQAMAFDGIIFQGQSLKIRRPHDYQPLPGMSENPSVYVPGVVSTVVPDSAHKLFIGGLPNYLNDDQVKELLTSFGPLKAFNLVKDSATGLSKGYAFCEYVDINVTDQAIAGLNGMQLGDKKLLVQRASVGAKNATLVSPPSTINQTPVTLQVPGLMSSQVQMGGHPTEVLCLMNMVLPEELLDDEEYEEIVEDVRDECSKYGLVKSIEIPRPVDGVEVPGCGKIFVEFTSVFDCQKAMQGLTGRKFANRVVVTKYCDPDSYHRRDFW
WRKY18 full length assumed: WRKY18 full length assumed (Arabidopsis thaliana, UniProt Q9C5T4)
Chain of UniProt Q9C5T4 (whole entry, looked up): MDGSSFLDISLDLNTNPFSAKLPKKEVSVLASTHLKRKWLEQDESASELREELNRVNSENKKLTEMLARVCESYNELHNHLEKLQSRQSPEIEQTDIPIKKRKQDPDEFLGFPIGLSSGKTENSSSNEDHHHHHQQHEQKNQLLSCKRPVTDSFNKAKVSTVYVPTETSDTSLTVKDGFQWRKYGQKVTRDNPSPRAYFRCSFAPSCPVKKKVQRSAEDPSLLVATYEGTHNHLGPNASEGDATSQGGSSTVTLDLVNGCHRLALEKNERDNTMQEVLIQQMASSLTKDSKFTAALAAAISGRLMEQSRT
SART3: SART3 697-786 (Homo sapiens, UniProt Q15020)
Chain of UniProt Q15020 (whole entry, looked up): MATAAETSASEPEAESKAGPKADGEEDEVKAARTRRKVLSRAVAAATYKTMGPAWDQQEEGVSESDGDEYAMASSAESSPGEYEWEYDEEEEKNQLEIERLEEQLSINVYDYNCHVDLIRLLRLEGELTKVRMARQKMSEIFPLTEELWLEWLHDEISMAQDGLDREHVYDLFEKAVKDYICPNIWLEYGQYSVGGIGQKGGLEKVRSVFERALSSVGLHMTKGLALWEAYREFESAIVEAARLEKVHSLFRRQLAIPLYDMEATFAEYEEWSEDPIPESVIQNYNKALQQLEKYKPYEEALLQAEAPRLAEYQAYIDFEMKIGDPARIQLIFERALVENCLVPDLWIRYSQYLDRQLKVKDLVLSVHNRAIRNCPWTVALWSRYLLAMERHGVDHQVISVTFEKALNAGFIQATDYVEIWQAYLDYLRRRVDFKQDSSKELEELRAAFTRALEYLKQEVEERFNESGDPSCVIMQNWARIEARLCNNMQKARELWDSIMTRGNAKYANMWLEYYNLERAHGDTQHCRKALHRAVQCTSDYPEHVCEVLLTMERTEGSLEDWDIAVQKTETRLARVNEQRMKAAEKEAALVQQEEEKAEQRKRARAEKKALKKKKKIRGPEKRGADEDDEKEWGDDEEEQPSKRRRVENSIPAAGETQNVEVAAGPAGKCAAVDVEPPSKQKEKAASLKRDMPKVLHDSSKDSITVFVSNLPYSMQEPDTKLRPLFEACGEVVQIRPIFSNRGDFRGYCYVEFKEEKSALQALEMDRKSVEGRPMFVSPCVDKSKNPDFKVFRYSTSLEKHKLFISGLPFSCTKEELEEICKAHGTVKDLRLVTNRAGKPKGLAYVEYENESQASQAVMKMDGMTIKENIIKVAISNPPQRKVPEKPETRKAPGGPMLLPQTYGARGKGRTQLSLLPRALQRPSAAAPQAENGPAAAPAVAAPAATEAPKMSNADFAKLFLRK
WT1: WT1 323-438 (Homo sapiens, UniProt P19544)
Chain of UniProt P19544 (whole entry, looked up): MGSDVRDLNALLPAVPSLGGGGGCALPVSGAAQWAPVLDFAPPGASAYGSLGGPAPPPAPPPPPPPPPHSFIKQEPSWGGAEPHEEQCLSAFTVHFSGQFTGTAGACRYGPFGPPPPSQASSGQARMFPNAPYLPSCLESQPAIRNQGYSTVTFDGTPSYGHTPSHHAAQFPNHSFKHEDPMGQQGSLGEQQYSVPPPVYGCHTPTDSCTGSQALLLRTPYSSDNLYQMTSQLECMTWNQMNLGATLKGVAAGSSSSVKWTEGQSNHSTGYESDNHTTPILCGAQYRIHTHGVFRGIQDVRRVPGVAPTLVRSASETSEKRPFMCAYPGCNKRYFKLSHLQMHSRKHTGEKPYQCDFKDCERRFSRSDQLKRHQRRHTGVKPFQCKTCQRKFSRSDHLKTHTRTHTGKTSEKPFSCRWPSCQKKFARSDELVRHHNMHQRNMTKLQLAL
Chain of UniProt P13006 (whole entry, looked up): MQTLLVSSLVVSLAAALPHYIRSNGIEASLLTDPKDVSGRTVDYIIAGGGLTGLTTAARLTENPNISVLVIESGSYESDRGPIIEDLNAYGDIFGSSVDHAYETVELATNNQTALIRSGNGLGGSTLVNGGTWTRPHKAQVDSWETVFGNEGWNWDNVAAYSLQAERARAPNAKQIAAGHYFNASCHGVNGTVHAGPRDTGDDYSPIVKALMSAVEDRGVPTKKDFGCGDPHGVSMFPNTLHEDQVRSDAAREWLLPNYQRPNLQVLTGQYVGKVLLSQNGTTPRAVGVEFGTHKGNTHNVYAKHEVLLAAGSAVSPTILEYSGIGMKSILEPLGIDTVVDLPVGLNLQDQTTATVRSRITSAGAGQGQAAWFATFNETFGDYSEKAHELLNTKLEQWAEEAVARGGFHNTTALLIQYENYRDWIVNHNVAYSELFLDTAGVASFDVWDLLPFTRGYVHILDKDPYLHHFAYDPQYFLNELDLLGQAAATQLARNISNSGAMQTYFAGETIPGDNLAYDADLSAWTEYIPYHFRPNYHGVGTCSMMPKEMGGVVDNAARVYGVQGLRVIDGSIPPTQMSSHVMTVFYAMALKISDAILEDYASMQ
Chain of UniProt P38741 (whole entry, looked up): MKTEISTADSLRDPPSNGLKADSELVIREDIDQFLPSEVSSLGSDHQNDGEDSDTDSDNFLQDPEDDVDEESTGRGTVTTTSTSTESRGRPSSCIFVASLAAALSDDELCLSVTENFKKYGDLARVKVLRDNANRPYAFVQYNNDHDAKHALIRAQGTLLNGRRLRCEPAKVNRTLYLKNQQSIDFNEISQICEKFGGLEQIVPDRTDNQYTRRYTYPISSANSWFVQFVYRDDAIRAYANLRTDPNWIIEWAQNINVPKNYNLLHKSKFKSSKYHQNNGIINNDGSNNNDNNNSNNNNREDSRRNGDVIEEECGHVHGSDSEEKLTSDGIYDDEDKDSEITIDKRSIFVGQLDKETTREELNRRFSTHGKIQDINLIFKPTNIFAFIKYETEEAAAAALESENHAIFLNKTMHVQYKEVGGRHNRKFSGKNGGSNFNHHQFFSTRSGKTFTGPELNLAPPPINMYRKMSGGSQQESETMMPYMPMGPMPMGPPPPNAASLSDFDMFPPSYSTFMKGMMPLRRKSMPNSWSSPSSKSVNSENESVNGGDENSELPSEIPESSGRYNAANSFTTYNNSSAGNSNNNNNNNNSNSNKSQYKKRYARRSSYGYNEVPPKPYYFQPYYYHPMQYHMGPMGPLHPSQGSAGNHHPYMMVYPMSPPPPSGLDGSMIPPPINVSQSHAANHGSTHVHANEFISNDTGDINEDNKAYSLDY
Chain of UniProt Q9Y6M1 (whole entry, looked up): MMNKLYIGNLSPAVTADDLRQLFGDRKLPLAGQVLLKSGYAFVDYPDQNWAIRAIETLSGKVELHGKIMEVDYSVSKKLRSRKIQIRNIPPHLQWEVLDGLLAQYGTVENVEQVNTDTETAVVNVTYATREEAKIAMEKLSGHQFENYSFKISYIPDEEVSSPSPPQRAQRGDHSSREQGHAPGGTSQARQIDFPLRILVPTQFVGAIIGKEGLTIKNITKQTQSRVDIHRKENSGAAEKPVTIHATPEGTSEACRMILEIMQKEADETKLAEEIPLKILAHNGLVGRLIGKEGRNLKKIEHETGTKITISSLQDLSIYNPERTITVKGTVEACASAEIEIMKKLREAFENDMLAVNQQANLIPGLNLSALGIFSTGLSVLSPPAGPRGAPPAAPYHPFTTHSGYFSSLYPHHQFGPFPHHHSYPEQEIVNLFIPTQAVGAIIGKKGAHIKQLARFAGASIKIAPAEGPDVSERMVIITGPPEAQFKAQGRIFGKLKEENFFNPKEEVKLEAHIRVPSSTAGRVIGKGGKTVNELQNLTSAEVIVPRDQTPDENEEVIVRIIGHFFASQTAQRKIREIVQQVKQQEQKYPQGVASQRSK
Chain of UniProt Q05066 (whole entry, looked up): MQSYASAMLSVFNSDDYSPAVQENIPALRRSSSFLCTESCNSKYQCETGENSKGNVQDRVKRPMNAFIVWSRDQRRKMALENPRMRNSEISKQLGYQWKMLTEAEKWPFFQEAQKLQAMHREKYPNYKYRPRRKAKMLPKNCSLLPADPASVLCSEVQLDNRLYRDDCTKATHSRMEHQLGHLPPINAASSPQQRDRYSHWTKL
Chain of UniProt Q0JHF1 (whole entry, looked up): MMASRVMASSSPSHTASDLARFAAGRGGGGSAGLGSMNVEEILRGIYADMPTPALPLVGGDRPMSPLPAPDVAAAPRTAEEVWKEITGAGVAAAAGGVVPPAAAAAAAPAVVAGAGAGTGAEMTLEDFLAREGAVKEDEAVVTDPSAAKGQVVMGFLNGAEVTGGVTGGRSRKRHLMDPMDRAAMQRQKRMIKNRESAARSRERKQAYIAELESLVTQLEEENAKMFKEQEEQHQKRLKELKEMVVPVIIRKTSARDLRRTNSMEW

Substance | tested on | test | system | conditions | measurement | result
CTGGGGGAGTATTGCGGAGGAAA (structured DNA; 5' thiol, 3' methylene blue) | INS 25-54;90-110 (Homo sapiens) | square wave voltammetry | folded DNA | 20 µM | binding | no binding
DNA 1 ACGCTCCCTCGAGGAATTCGGATCCGAATTCCTCGAG / DNA 2 ACGCTCCCTCGAGGAATTCGGATCCGAATTCCTCGAG (dsDNA; 5' 7-nt overhangs, palindromic) | sduA 1-380 (Bacillus cereus, UniProt B7HFR2) | fluorescence polarization | double-stranded DNA | added: Mg2+ 5 mM | binding | no binding
DNA 1 ACACTACAATGTTGCAAT / DNA 2 GTATTGCAACATTGTAGT (dsDNA (Drosophila melanogaster); 16 bp, 5' 2 nt overhangs) | SRY 60-128 (Homo sapiens, UniProt Q05066) | EMSA | double-stranded DNA | – | binding | binds
TCGGTACCCGTGGATC (dsDNA) | protein full length assumed D348A (Bacillus pumilus, UniProt A3FMN7) | EMSA | double-stranded DNA, one strand shown | – | binding | binds
UCAUCCCAGCUGGUGUAAUAAUGAAUUGUUUAAAAAACAGCUCAUAAUUGAUGCCAAAUUAAAGCAC (ssRNA; single strand) | IGF2BP2 1-599 (Homo sapiens, UniProt Q9Y6M1) | mass photometry | RNA | – | binding | binds
AAUCAUUUU (ssRNA) | U2AF2 | sequencing of bound RNA | RNA | motif only | Kd | 1180 nM
CTGTTTTATTCACTTGATCTTCTTAATCTTTTAAATTGCCTATCTTTTGCTATGTTTTTGTTACAATTTAAATTGACAAGTACTTAGAAAAACAAACAAAAATGATATCTCTGTTCCATCTTAGATTATTCGTTTCTTATTTCTCTTAATATATATTTTTGAACACGCTTATTTCTCTTATATATGTTGCAATATTC (dsDNA) | WRKY18 full length assumed | EMSA | double-stranded DNA, one strand shown | – | binding | binds
TGAACAACTGTCCACTAG (dsDNA) | Auxin response factor 1-610 (Capsicum annuum, UniProt A0A1U8F1G4) | MST | double-stranded DNA, one strand shown | – | binding | binds
TTATATACTCTGATTCATTGTACCTGACGTTGCTGCTTTGTC (dsDNA) | NOR full length assumed (Solanum lycopersicum, UniProt A0A3Q7J5X6) | EMSA | double-stranded DNA, one strand shown | – | binding | binds
GGGTTGCGGCCGCTTGGG (dsDNA; blunt, 5'-phosphate) | PARP1 full length assumed W318R (Homo sapiens, UniProt P09874) | stopped-flow fluorescence anisotropy | double-stranded DNA, one strand shown | – | binding | binds
AUGGAUGUU (ssRNA) | U2AF2 | sequencing of bound RNA | RNA | motif only | Kd | 12000 nM
ACAGGGTCCTGGGGACAGGGTCCTGGGG (ssDNA (Homo sapiens)) | IGF2 fragment (Homo sapiens) | affinity MALDI MS | single-stranded DNA | 100 nM | binding | no binding
CGTGCAGTACGCCAACCTTTCTCATGCGCTGCCCCTCTTA (ssDNA; 5' thiol) | TNNI3 2-210 (Homo sapiens, UniProt P19429) | strand displacement by complementary DNA, DPV | single-stranded DNA | electrochemical aptasensor | binding | binds
TTTTTTTTTTCGTATGGCACGGGGTTGGTGTTGGGTTGG (ssDNA; 5'-phosphate; G-quadruplex) | gox (Aspergillus niger, UniProt P13006) | electrolyte-gated transistor sensor | single-stranded DNA | – | binding | no binding
GTGAGATTCAAGTTCTCTCACCGACAACTAACTGATTTTGAAGGCA (dsDNA) | Auxin response factor 1-896 (Populus tomentosa, UniProt A0A8X8DKC4) | EMSA | double-stranded DNA, one strand shown | – | binding | binds
GGTCCAGCTGAAGCCATCTAGTCAACGCTTACATTTACACTTGT (dsDNA) | WRKY domain-containing protein 1-700 (Vitis vinifera, UniProt A0ABY9BSD8) | EMSA | double-stranded DNA, one strand shown | – | binding | binds
UUUUUUU (ssRNA) | CP29A 97-176 (Arabidopsis thaliana, UniProt Q43349) | NMR titration | RNA | – | binding | binds
CTGAAGTTTGGTCAAAATAATACGATGAATTTAATATATAAGAGACAAAATTGTTATTGTCGTTTAGGTGGTATCCATATTTCAATATAGTTTGTGTGAATACAGATATAAAAATGGTTATTGTTGTGTATATGATGCAGTTG (dsDNA) | WRKY18 full length assumed | EMSA | double-stranded DNA, one strand shown | – | binding | binds
AGAUU (ssRNA) | SART3 | ITC | RNA | – | binding | no binding
TGAACAACCCCCCACTAG (dsDNA) | Auxin response factor 1-610 (Capsicum annuum, UniProt A0A1U8F1G4) | EMSA | double-stranded DNA, one strand shown | – | binding | no binding

Substance | tested on | test | system | conditions | measurement | result
AAACAAATCTCAAAATGAAGGCAAAG (dsDNA) | NAC083 (Arabidopsis thaliana, UniProt Q9FY93) | EMSA | double-stranded DNA, one strand shown | – | binding | binds
CAGCTTTTCAATGGCTTTCCAATACGACCCGCAGGGGAAAAACCGTTAAACCGTCCACATTAACCGCTGACCCAAAAAAGAACGCTTTTTACTAAAAGATTTCTATTCGGTTCTCAAATGTTGCTTGAATGGGGCAACAATAAAACGTCGTGGCATTTAACCTAGTTTGGAAATTCAGACCCTATTGAATTTCGC (dsDNA) | ihfA/ihfB 1-98; 1-95 (Aggregatibacter actinomycetemcomitans) | EMSA | double-stranded DNA, one strand shown | – | binding | no binding
GAGCTGCAAGTGGATATTTGGACCTCTTTGAGGTCTTCGTTGGAAACGGGATTTCCTCATATAATGTTACACAGAAGAATTCTCAGTAACTTATTTGTGGTGTGTGTATTCAACTCACAGAGGTGAACCTTCCTTCAGAAAGAGCAGATTTGAAACACTCTTTTTGTACCC (dsDNA) | CENP-H/CENP-K 1-247 / 1-269 (Homo sapiens) | EMSA | double-stranded DNA, one strand shown | – | binding | no binding
UUUUAGCUGCUUGCUUAGAAGAAAAGAAAAGAAAAUUGCAGAGAAAAAGCUAUUUAUUGUUUCUGUCCUUCGCUUUAAAACAUAGAGAUAUUUUGUCCUUUUUAUCAUUGCUUAUUAUAA (ssRNA) | RIM4 1-713 (Saccharomyces cerevisiae, UniProt P38741) | EMSA | RNA | – | binding | binds
CGGGAACUCGCGUAGACACGCCCG (structured RNA) | NFKB1 41-249 (Homo sapiens, UniProt P19838) | NMR | folded RNA | NaCl 50 mM | binding | binds
TATCGCTTTCTTCTCCCGTGACATCATTGTCGAGGTTTATT (dsDNA) | WRKY70 1-294 (Arabidopsis thaliana, UniProt Q9LY00) | EMSA | double-stranded DNA, one strand shown | – | binding | binds
ACCAAGCGGGATTCGGAGCCGCCGCCGCCGCCG (dsDNA; blunt) | WT1 | EMSA | double-stranded DNA, one strand shown | – | binding | no binding
colistin | Enterobacter cloacae | – | clinical isolate RKI 361/13 | – | MIC | ≤ 0.5 µg/mL
AATTACTTAGAACTCTCACATTTAACCACGTAATGATCATATCAACGGTGTTATCCAT (dsDNA) | BZIP12 full length assumed (Oryza sativa, UniProt Q0JHF1) | EMSA | double-stranded DNA, one strand shown | – | binding | no binding
ACCAAGCGGTATGCGGAGCCGCCGCCGCCGCCG (dsDNA; blunt) | WT1 | EMSA | double-stranded DNA, one strand shown | – | binding | no binding
AAGAU (ssRNA) | SART3 | ITC | RNA | – | binding | no binding
CGTTTGTCGCTGTCACGATGTGGACCGTTCTTCTTTATTTTCACGTGGACCGACTTAATTACCTTCTTTCATTCTTGTTATTTCAATATTTTTTACGTCATTTAAACTCCACTTTACCAAAATAATTTATTTCATTCTTTGAGAGCATCAATTATCAAATAATTCAATTGTCTTTTTTCGTGATAGTTGAATAAGGGAC (dsDNA) | WRKY60 full length assumed (Arabidopsis thaliana, UniProt Q9SK33) | EMSA | double-stranded DNA, one strand shown | – | binding | no binding
CCTGCGGTATTGACACTTGAGGGGCGCGACTACTGACAGATGAGGGGCGCGATCCTTGACACTTGAGGGGCAGAGTGATGACAGATGAGGGGCGCACCTATTGACATTTGAGGGGCTGTCCACAGGCAG (dsDNA) | trfA 98-382 R156E/G254D/S267L (Escherichia coli, UniProt P07676) | SPR | double-stranded DNA, one strand shown | – | binding | binds
AAAAAAAAAAAAAAAAAAAAAAAAAAAAAAAAAAAAAAAAAAAA (ssRNA) | Dentin sialophosphoprotein-like protein 1-828 (Arabidopsis thaliana, UniProt Q9FGR1) | EMSA | RNA | – | binding | no binding
AAACTTCCGTGGAGAACC (dsDNA) | PDR1 1-207 (Saccharomyces cerevisiae, UniProt P12383) | competition | double-stranded DNA, one strand shown | – | binding | binds
GGTGAAGATCTCAATTACACAAAAATGAATGCTTTAAAAGGATCATTTAA (dsDNA) | GATA15 full length assumed (Oryza sativa, UniProt Q6L5E5) | EMSA | double-stranded DNA, one strand shown | – | binding | binds
GGGGGCTATAAAAGGGGGTGGGGGCGCGTTCGTCCTCAAGTCAATCGGTCC (dsDNA; 5'-amino-C6 primer) | SPT15 full length assumed (Saccharomyces cerevisiae, UniProt P13393) | array | double-stranded DNA, one strand shown | TBP alone | Kd | 24.2 ± 2.01 nM
TCAGTTGGCAGGTTGGCAGTAATTTTGACGAAATTCGTTGCAGAATGATA (dsDNA) | WRKY23 (Oryza sativa, UniProt Q7E0X1) | EMSA | double-stranded DNA, one strand shown | – | binding | binds
GATTTTGTCTTGATACTTAAACTTTGGAA (dsDNA) | Uncharacterized protein 1-360 (Prunus persica, UniProt M5W9R3) | EMSA | double-stranded DNA, one strand shown | – | binding | binds
TTATGGGCGTGGGCCCTACGCGTGTGCGCACGAGGAGGTGAGGTGA (dsDNA) | BZR1 1-298 (Oryza sativa, UniProt Q7XI96) | EMSA | double-stranded DNA, one strand shown | – | binding | binds

A few entries again:
Substance | tested on | test | system | conditions | measurement | result
CGGGAACUCGCGUAGACACGCCCG (structured RNA) | NFKB1 41-249 (Homo sapiens, UniProt P19838) | NMR | folded RNA | NaCl 50 mM | binding | binds
TATCGCTTTCTTCTCCCGTGACATCATTGTCGAGGTTTATT (dsDNA) | WRKY70 1-294 (Arabidopsis thaliana, UniProt Q9LY00) | EMSA | double-stranded DNA, one strand shown | – | binding | binds
ACCAAGCGGGATTCGGAGCCGCCGCCGCCGCCG (dsDNA; blunt) | WT1 | EMSA | double-stranded DNA, one strand shown | – | binding | no binding
colistin | Enterobacter cloacae | – | clinical isolate RKI 361/13 | – | MIC | ≤ 0.5 µg/mL
AATTACTTAGAACTCTCACATTTAACCACGTAATGATCATATCAACGGTGTTATCCAT (dsDNA) | BZIP12 full length assumed (Oryza sativa, UniProt Q0JHF1) | EMSA | double-stranded DNA, one strand shown | – | binding | no binding
ACCAAGCGGTATGCGGAGCCGCCGCCGCCGCCG (dsDNA; blunt) | WT1 | EMSA | double-stranded DNA, one strand shown | – | binding | no binding
AAGAU (ssRNA) | SART3 | ITC | RNA | – | binding | no binding
